Measured values pooled from the literature.
Lines come from different studies, so protocols differ. ± gives the spread as reported.

For `CC(C)[C@H](NC(=O)c1ccccc1NC(=O)c1ccc(O)cc1)C(=O)N[C@H](CO)C(C)C`, the EC50 was 25800 ± 5700 nM (SARS-CoV-2; plaque formation, plaque reduction; Vero E6; 72 h).
The EC50 of `O=C(O[C@@H]1O[C@@H]2COC(=O)c3cc(O)c(O)c(O)c3-c3c(cc(O)c(O)c3O)C(=O)O[C@H]([C@H]1O)[C@@H]2O)c1cc(O)c(O)c(O)c1` is reported as 130 nM (SARS-CoV-2; viral replication; Vero).
With `O=C(Nc1ccc2c(c1)OCO2)c1nnc(C(=O)N2CCCC(C(=O)NCc3ccccc3)C2)s1` (stereo not shown) the EC50 was 7100 ± 3500 nM (SARS-CoV-2; plaque formation, plaque reduction; Vero E6; 72 h).
`Cn1cnc(Cn2c(=O)[nH]/c(=N\c3cc4cn(C)nc4cc3Cl)n(Cc3cc(F)c(F)cc3F)c2=O)n1` has an EC50 of 190 nM (SARS-CoV-2; viral replication; Vero C1008, Delta).
For `CC(C)(C)[C@H](NC(=O)C(F)(F)F)C(=O)N1C[C@H]2[C@@H]([C@H]1C(=O)N[C@H](C#N)C[C@@H]1CCNC1=O)C2(C)C`, the EC50 was 190 nM (SARS-CoV-2; viral replication; Huh-7.5.1).
`CC(C)(C)[C@H](NC(=O)C(F)(F)F)C(=O)N1C[C@H]2[C@@H]([C@H]1C(=O)N[C@H](C#N)C[C@@H]1CCNC1=O)C2(C)C` gave an EC50 of 1220 nM (SARS-CoV-2; Vero C1008, XBB.1).
With `COc1ccc2cc1Oc1ccc(cc1)C[C@H]1c3cc(c(OC)cc3CCN1C)Oc1c(OC)c(OC)cc3c1[C@H](C2)N(C)CC3` the EC50 was 560 nM (SARS-CoV-2; viral replication; 293T-ACE2, USA-WA1/2020; 24 h).
`N#C[C@@]1(c2ccc3c(N)ncnn23)O[C@H](CO)[C@@H](O)[C@H]1O` gave an EC50 of 16000 ± 810 nM (SARS-CoV-2; viral RNA copies; Vero C1008, VOC-202012/01; 48 h, 50% decrease endpoint).
With `COc1cc2c(cc1N1C[C@@H](C)N[C@@H](C)C1)N(C(=O)c1ccc(-c3ccc(-c4noc(C)n4)cc3C)cc1)CC2` the EC50 was 290 nM (SARS-CoV-2; viral replication; 293T-ACE2, USA-WA1/2020; 24 h).
`CCOC(=O)C1=C(CN2CCCN(C(=O)OC(C)(C)C)CC2)NC(=O)NC1c1ccc(C)cc1` (stereo not shown) gave an EC50 of 15200 ± 2500 nM (SARS-CoV-2; plaque formation, plaque reduction; Vero E6; 72 h).
With `O=[N+]([O-])c1cc(N2[C@@H]3CC[C@H]2COC3)ccc1NCc1ccc(CN2C[C@H](O)[C@@H](O)[C@H](O)[C@H]2CO)cc1` the EC50 was over 25000 nM (SARS-CoV-2; viral replication; USA-WA1/2020).
`CC(C)(C)[C@H](NC(=O)C(F)(F)F)C(=O)N1C[C@H]2[C@@H]([C@H]1C(=O)N[C@H](C#N)C[C@@H]1CCNC1=O)C2(C)C` has an EC50 of 400 ± 100 nM (SARS-CoV-2; nucleocapsid staining; Caco-2, Omicron BQ.1.1).
For `C#C[C@]1(O)CC[C@H]2[C@@H]3CCc4cc(OC5CCCC5)ccc4[C@H]3CC[C@@]21C`, the EC50 was over 100000 nM (SARS-CoV-2; viral replication, high-content imaging screen; cell-based).
For `CC(C)=CCc1cc([C@@H]2CC(=O)c3c(O)cc(O)c(CC=C(C)C)c3O2)cc(CC=C(C)C)c1O`, the EC50 was 20200 nM (SARS-CoV-2; viral replication; mNeonGreen reporter).
For `CSc1ccc(N(Cc2cc(Cl)cs2)C(=O)Cc2cncc3ccccc23)cc1`, the EC50 was 13200 nM (SARS-CoV-2; viral replication; Calu-3, Omicron BA.1).
`CC(C)=CCN1Cc2cc(Cl)cc3[nH]c(=S)n(c23)C[C@@H]1C` gave an EC50 of 70 nM (SARS-CoV-2; viral replication; 293T-ACE2, USA-WA1/2020; 24 h).
For `CC(Cc1ccccc1)NCCC(c1ccccc1)c1ccccc1` (stereo not shown), the EC50 was over 100000 nM (SARS-CoV-2; viral replication, high-content imaging screen; cell-based).
`[N-]=[N+]=N[C@]1(CO)O[C@@H](n2ccc(N)nc2=O)[C@@H](F)[C@@H]1O` gave an EC50 of over 50000 nM (SARS-CoV-2; viral replication, imaging; Calu-3, Omicron BA.1).
For `COc1ccc2cc(-c3cc(-c4cc(Cl)cc(Cl)c4)nn3[C@@H](C)c3ccc(C(=O)NCCC(=O)O)cc3)ccc2c1`, the EC50 was 3160 nM (SARS-CoV-2; virus-induced cytopathic effect; Vero E6, USA-WA1/2020; 72 h).
For `CCN(CC)CCCNc1cc(OC)cc2cccnc12`, the EC50 was 24600 nM (SARS-CoV-2; viral replication, GFP plate reader screen; BetaCov/Belgium/GHB-03021/2020; cell-based).
For `Cc1c(-c2ccc(-c3ccccc3F)cc2)nc2ccc(F)cc2c1C(=O)O`, the EC50 was 800 ± 100 nM (SARS-CoV-2; viral replication; Calu-3; 48 h).
`C[C@@]1(O)[C@H](O)[C@@H](CO)O[C@H]1n1cc(F)c2c(N)ncnc21` gave an EC50 of 7600 ± 400 nM (SARS-CoV-2; viral replication; Vero; 48 h).
The EC50 of `NC(=O)c1c(NC(=O)c2cnn3c(C(F)F)cc(-c4ccccc4)nc23)sc2c1CCCC2` is reported as over 50000 nM (SARS-CoV-2; plaque formation, plaque reduction; Vero E6; 72 h).
`OCCN1CCN(CCC=C2c3ccccc3Sc3ccc(C(F)(F)F)cc32)CC1` has an EC50 of 8710 nM (SARS-CoV-2; viral replication, GFP plate reader screen; cell-based).
With `CC(=O)c1cccc(NC(=O)c2cc3c(=O)n4ccccc4nc3n2C)c1` the EC50 was 107 nM (SARS-CoV-2; viral replication; Vero E6).
The EC50 of `CCN(CC)C(=S)SSC(=S)N(CC)CC` is reported as over 100000 nM (SARS-CoV-2; viral replication; Vero E6; 96 h).
`O=[N+]([O-])c1ccc(O)c2ncccc12` gave an EC50 of about 5000 nM (SARS-CoV-2; viral replication; human epithelial cells, ancestral; 24 h).
`CCN1CCN(C(C(=O)O)c2c[nH]c3ccc(NC(=O)CCC(=O)O)cc23)CC1` (stereo not shown) gave an EC50 of over 50000 nM (SARS-CoV-2; plaque formation, plaque reduction; Vero E6; 72 h).
For `N#C[C@@]1(n2ccc(N)nc2=O)O[C@H](CO)[C@@H](O)[C@H]1O`, the EC50 was 400 ± 200 nM (SARS-CoV-2; viral replication, qRT-PCR of viral RNA; Caco-2, Washington).
`OCCN1CCN(CCC=C2c3ccccc3Sc3ccc(C(F)(F)F)cc32)CC1` gave an EC50 of 2950 nM (SARS-CoV-2; Vero C1008, WIV04; 24 h).
With `CC(C)(C)NCc1ccc(Nc2ccnc3cc(Cl)ccc23)cc1O` the EC50 was 290 nM (SARS-CoV-2; viral replication; 293T-ACE2, USA-WA1/2020; 24 h).
The EC50 of `CCC(CC)COC(=O)[C@H](C)N[P@](=O)(OC[C@H]1O[C@@](C#N)(c2ccc3c(N)ncnn23)[C@H](O)[C@@H]1O)Oc1ccccc1` is reported as 9.9 ± 1.75 nM (SARS-CoV-2; viral replication, qPCR; Vero E6).
For `O=C[C@H](C[C@@H]1CCNC1=O)NC(=O)[C@H](CC1CCCCC1)NC(=O)c1cc2ccccc2[nH]1`, the EC50 was 2570 nM (SARS-CoV-2; viral replication; Vero E6, 2019-nCoV-WIV04; 30% human serum).
`Cc1ccc(CCCO)c(NCc2ccc3nc(NCCCN4CCOCC4)n(Cc4nc(C)ccc4O)c3c2)c1` has an EC50 of over 20000 nM (SARS-CoV-2; viral replication, GFP plate reader screen; BetaCov/Belgium/GHB-03021/2020; cell-based).
`CN(C)c1ccc(N(Cc2cc(Cl)cs2)C(=O)Cc2cncc3cccc(O)c23)cc1` has an EC50 of 40 ± 10 nM (SARS-CoV-2; nucleocapsid staining; Caco-2, Omicron BQ.1.1).
For `CNc1ncnc2c1nnn2[C@@H]1C(F)=C(CO)[C@@H](O)[C@H]1O`, the EC50 was over 100000 nM (SARS-CoV-2; viral replication, spike protein immunostaining; Vero; 48 h).
`CN1CCC(CN2c3ccccc3Sc3ccccc32)C1` (stereo not shown) gave an EC50 of over 100000 nM (SARS-CoV-2; viral replication, high-content imaging screen; cell-based).
`CC(C)(C)[C@H](NC(=O)C(F)(F)F)C(=O)N1C[C@H]2[C@@H]([C@H]1C(=O)N[C@H](C#N)C[C@@H]1CCNC1=O)C2(C)C` gave an EC50 of 100 ± 80 nM (SARS-CoV-2; viral replication, qRT-PCR of viral RNA; Caco-2, Washington).
`CCC(CC)COC(=O)[C@H](C)N[P@](=O)(OC[C@H]1O[C@@](C#N)(c2ccc3c(N)ncnn23)[C@H](O)[C@@H]1O)Oc1ccccc1` has an EC50 of 7.2 nM (SARS-CoV-2; viral replication; 293T-ACE2, USA-WA1/2020; 24 h).
With `CC(C)(C)[C@H](NC(=O)C(F)(F)F)C(=O)N1C[C@H]2[C@@H]([C@H]1C(=O)N[C@H](C#N)C[C@@H]1CCNC1=O)C2(C)C` the EC50 was 40 nM (SARS-CoV-2; viral replication; Caco-2, icSARS-CoV-2-nLuc reporter).
`COc1ccc(F)c2[nH]c(C(=O)N[C@@H](CC(C)C)C(=O)N[C@@H](C[C@@H]3CCNC3=O)C(=O)c3nc4c(F)cccc4s3)cc12` has an EC50 of 290 ± 56 nM (SARS-CoV-2; viral replication, RT-qPCR; VeroE6, WK-521).
For `Nc1ncnc2c([C@@H]3N[C@H](CO)[C@@H](O)[C@H]3O)c[nH]c12`, the inhibition was 15% (Lassa mammarenavirus; viral replication; HeLa, Josiah; 25 µM).
With `CC(NC(=O)C(=O)NCCN1CCOCC1)C(c1cccs1)N1CCN(c2ccccc2)CC1` (stereo not shown) the EC50 was over 50000 nM (SARS-CoV-2; plaque formation, plaque reduction; Vero E6; 72 h).
`COc1cccc2c(N3CCc4ccccc4C3C)nc(Nc3ccc(F)cc3C)nc12` (stereo not shown) gave an EC50 of 1100 nM (SARS-CoV-2; viral replication; 293T-ACE2, USA-WA1/2020; 24 h).
The EC50 of `COc1ccc(C(=O)COC(=O)C(Cc2ccccc2)N2C(=O)C3C4C=CC(C4)C3C2=O)cc1` (stereo not shown) is reported as over 50000 nM (SARS-CoV-2; plaque formation, plaque reduction; Vero E6; 72 h).
With `COc1ccc(F)c2[nH]c(C(=O)N[C@@H](CC(C)C)C(=S)N[C@@H](C[C@@H]3CCNC3=O)C(=O)c3nc4c(F)cccc4s3)cc12` the EC50 was 340 ± 15 nM (SARS-CoV-2; viral replication, RT-qPCR; VeroE6, WK-521).
`CC(C)(C)c1ccc(N(Cc2cc(Cl)cs2)C(=O)Cc2cncc3ccccc23)cc1` gave an EC50 of 2500 nM (SARS-CoV-2; viral replication; Calu-3, Omicron BA.2).
The EC50 of `COc1cc2c(Oc3ccc4[nH]c(C)cc4c3F)ccnc2cc1OCC1(N)CC1` is reported as over 100000 nM (SARS-CoV-2; viral replication, GFP plate reader screen; cell-based).
`CCC(CC)COC(=O)[C@H](C)N[P@](=O)(OC[C@H]1O[C@@](C#N)(c2ccc3c(N)ncnn23)[C@H](O)[C@@H]1O)Oc1ccccc1` has an EC50 of 200 ± 100 nM (SARS-CoV-2; viral replication, qRT-PCR of viral RNA; Calu-3, Washington).
The EC50 of `CC(C)(C)[C@H](NC(=O)C(F)(F)F)C(=O)N1C[C@@H]2CCC[C@@H]2[C@H]1C(=O)N[C@@H](C[C@@H]1CCNC1=O)C(=O)c1nc2cc(F)ccc2s1` is reported as 30 nM (SARS-CoV-2; viral replication; Vero C1008, JPN/TY/WK-521 (ancestral Wuhan)).
The EC50 of `OC1(c2ccc(Cl)c(C(F)(F)F)c2)CCN(CCCC(c2ccc(F)cc2)c2ccc(F)cc2)CC1` is reported as over 100000 nM (SARS-CoV-2; viral replication, GFP plate reader screen; cell-based).
With `O=c1c2ccccc2[se]n1-c1ccccc1` the EC50 was 12000 nM (SARS-CoV-2; viral replication, RT-qPCR; Vero; 48 h).

Some of these lines once more:
With `O=[N+]([O-])c1cc(N2[C@@H]3CC[C@H]2COC3)ccc1NCc1ccc(CN2C[C@H](O)[C@@H](O)[C@H](O)[C@H]2CO)cc1` the EC50 was over 25000 nM (SARS-CoV-2; viral replication; USA-WA1/2020).
For `CCN(CC)CCCNc1cc(OC)cc2cccnc12`, the EC50 was 24600 nM (SARS-CoV-2; viral replication, GFP plate reader screen; BetaCov/Belgium/GHB-03021/2020; cell-based).
The EC50 of `CCN(CC)C(=S)SSC(=S)N(CC)CC` is reported as over 100000 nM (SARS-CoV-2; viral replication; Vero E6; 96 h).
`CC(C)(C)[C@H](NC(=O)C(F)(F)F)C(=O)N1C[C@H]2[C@@H]([C@H]1C(=O)N[C@H](C#N)C[C@@H]1CCNC1=O)C2(C)C` gave an EC50 of 1220 nM (SARS-CoV-2; Vero C1008, XBB.1).
`CCOC(=O)C1=C(CN2CCCN(C(=O)OC(C)(C)C)CC2)NC(=O)NC1c1ccc(C)cc1` (stereo not shown) gave an EC50 of 15200 ± 2500 nM (SARS-CoV-2; plaque formation, plaque reduction; Vero E6; 72 h).
The EC50 of `COc1cc2c(Oc3ccc4[nH]c(C)cc4c3F)ccnc2cc1OCC1(N)CC1` is reported as over 100000 nM (SARS-CoV-2; viral replication, GFP plate reader screen; cell-based).
